Measured values from different studies.
Numbered parts are unrelated; each lists some results of a single study. Substitutions count along the parent as printed.

Study 1 — technique: RNA Bind-n-Seq; molecule type: RNA; matrix: in vitro; tested at: not given; baseline: input RNA pool; direction: higher = stronger binding
Target: RING finger protein unkempt homolog, zinc fingers 1-6, GST-SBP tag (UNK, Homo sapiens, UniProt Q9C0B0, residues 30-357)
Setting: RNA with constant flanks, human and mouse sites, ends assumed
All sequences stand within: GGGAGUUCUACAGUCCGACGAUC … CAACAGAGGAUUGAGCAUCA
Target sequence (chain): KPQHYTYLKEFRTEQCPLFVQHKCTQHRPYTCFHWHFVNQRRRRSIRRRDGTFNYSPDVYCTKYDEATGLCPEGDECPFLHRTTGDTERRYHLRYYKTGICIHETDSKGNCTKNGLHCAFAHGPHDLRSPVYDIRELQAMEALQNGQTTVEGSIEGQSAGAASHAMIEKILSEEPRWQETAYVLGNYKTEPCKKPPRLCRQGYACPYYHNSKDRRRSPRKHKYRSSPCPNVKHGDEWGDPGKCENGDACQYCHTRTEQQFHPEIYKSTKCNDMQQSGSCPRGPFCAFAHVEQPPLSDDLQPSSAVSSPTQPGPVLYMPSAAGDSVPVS
`AAGGGAAUGGAGGAAGGAGAAGACAAUUUGCUCUGUAACCUUCGAGAAGUUCAGUGCCUUAUCUGUUGUCUCUUGCACCAAAUGUACAUUGCAGAUCCCAACAUUGCUAAGCUUGUUCAC` gave a bound/input enrichment of 0.099 ratio.
The bound/input enrichment of `CGCGUUUUGUGUAGAGAAUAAGGAACGUGGAUCUUUUUAUUUUGCAAUCCUGGGCCAGCUAGAAGCCAGGAGCUGAUUGACCUUUUAACUUUUUUCAGUGGCCACAUUUUGGUUAUCGAU` is reported as 0.97 ratio.
With `CCCGGGGCAAGAGUUUAACAUCUUCGGCCCUGCAUUCCUACAUCUUGUGUCUGUACACGUUCUUAAGCAGCGUGUCAGGAGAGCACCCUGUUGUCUUCUGGUAAAUGUGUGCAGGGUCAU` the bound/input enrichment was 0.167 ratio.
`UUAAGGAUUCCACUCCACCCUUUUUCUCCUCUUCCAGGAAAGGGAGGUGAAAGAAUUGUAUUUUUCUCCCAGCUCUAAAUCAUCUAUGUGUUAAAUAUCCGUACCGAUCUGUCUUGAAGA` has a bound/input enrichment of 0.337 ratio.
`UGUCUUGAUGACACUACAGUAAAGUUUGAAAUAUGGGAUACAGCUGGUCAAGAACGAUACCAUAGCCUAGCACCAAUGUACUACAGAGGAGCACAAGCAGCCAUAGUUGUAUAUGAUAUC` gave a bound/input enrichment of 2 ratio.
For `ACUGAAGAAUCCAAAGCCCCAGUGUACACACAUCUCUUCUGACUCUUCCAGCAAGACGGCCCUGUUUUCCACUAUGCAAGAUCAGACAGAGGUCAGAGGUCAACUCCCAACCCACUUCCU`, the bound/input enrichment was 0.135 ratio.
The bound/input enrichment of `AUGUCCUUUCCUCUGGACAAUGUUGACAUAGGAUUCAGGAAUCAGGUUGAUGACAUUCGAAGCUUUUUGGAUUCCAGACAUCUUGACCACUACACAGUAUACAAUCUGUCACCUAAGUCU` is reported as 0.0828 ratio.
With `UACCAGGGAAUCUGGAAACCAAGGAAAAUACCAAAUCCAGAUUUCUUUGAAGACCUAGAACCUUUUAAGAUGACUCCUUUCAGUGCUAUUGGUUUGGAGCUCUGGUCCAUGACAUCCGAC` the bound/input enrichment was 0.235 ratio.

Study 2 — technique: protein binding microarray; molecule type: double-stranded DNA, one strand shown; matrix: in vitro; tested at: not given; baseline: not given; direction: higher = stronger binding
Target: Histone acetyltransferase KAT6A, both winged helices, GST fusion (KAT6A, Homo sapiens, UniProt Q92794, residues 1-181)
Setting: 8-mer, flanks averaged, mean of 2 arrays, mostly near background
Construct (chain): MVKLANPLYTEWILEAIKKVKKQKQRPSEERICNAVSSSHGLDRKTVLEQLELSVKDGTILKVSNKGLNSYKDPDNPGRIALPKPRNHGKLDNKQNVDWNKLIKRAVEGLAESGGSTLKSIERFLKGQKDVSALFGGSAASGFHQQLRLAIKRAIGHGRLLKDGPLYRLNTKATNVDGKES
For `CTACGAAC`, the E-score was -0.0692.
With `CTTGCTTC` the E-score was -0.203.
`CTCCCGGA` gave an E-score of 0.0283.
For `CCTGTGGA`, the E-score was -0.246.
With `AAAGAAAC` the E-score was -0.00971.
`GAATCAGA` gave an E-score of -0.15.
For `ACTCAGGG`, the E-score was -0.178.
For `CCGAGGCG`, the E-score was 0.218.
With `CTGTCAGA` the E-score was -0.0146.
With `ATATCCGG` the E-score was 0.134.
`CTATCCAA` has an E-score of -0.0373.
`ACTTACCC` has an E-score of 0.00069.
For `AGAATCAC`, the E-score was 0.0874.
`CCTAATTA` has an E-score of -0.127.
The E-score of `CCGTCAGG` is reported as 0.104.
With `ACTTTACC` the E-score was -0.0347.
The E-score of `CGGATACA` is reported as 0.237.
For `ATCACCCG`, the E-score was 0.186.
With `AAACTTTA` the E-score was -0.0234.
`CAATGTGG` gave an E-score of -0.0498.
With `AGGCACAC` the E-score was -0.213.
For `AGGTCGCA`, the E-score was 0.0891.
`CTTTACAC` gave an E-score of 0.0296.
`CCAATGCA` gave an E-score of -0.171.

Study 3 — target: CCND2, cyclin fold, Cln2 fusion (human); technique: yeast growth competition, sequencing; matrix: yeast; setting: weak parent motif; baseline: not given; direction: higher = stronger binding
Starting sequence: RBL2 docking peptide (human); STTRRRLFVENDS; partner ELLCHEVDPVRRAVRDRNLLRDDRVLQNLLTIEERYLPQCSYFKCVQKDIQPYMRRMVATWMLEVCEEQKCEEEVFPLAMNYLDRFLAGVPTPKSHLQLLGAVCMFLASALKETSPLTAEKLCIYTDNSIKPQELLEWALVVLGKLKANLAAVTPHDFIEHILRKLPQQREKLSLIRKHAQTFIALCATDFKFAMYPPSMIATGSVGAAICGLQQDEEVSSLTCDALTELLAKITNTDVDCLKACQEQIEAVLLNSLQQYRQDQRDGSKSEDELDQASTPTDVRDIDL
Under “normalised enrichment score”, `D12E` is recorded as 0.0379.
For `R6W`, “normalised enrichment score” read 0.00861.
`V9A`: “normalised enrichment score” 0.339.
`N11A` — result for “normalised enrichment score”: -0.268.
`R5V`: “normalised enrichment score” -0.055.
For `L7M`, “normalised enrichment score” read -0.00697.
`R6M` — result for “normalised enrichment score”: 0.2.
For `D12H`, “normalised enrichment score” read 0.139.
`E10F` — result for “normalised enrichment score”: 0.271.
Under “normalised enrichment score”, `T3K` is recorded as 0.154.
`V9D` — result for “normalised enrichment score”: 0.0498.
For `D12M`, “normalised enrichment score” read -0.0422.
`D12S`: “normalised enrichment score” 0.218.
Under “normalised enrichment score”, `N11R` is recorded as 0.0113.
For `V9H`, “normalised enrichment score” read 0.147.
Under “normalised enrichment score”, `D12Y` is recorded as 0.295.
Under “normalised enrichment score”, `T3L` is recorded as 0.149.
For `N11W`, “normalised enrichment score” read 0.308.
Under “normalised enrichment score”, `R4Q` is recorded as 0.226.
`T3E` — result for “normalised enrichment score”: -0.211.
`R6Y` — result for “normalised enrichment score”: 0.127.
Under “normalised enrichment score”, `L7S` is recorded as 0.215.
Under “normalised enrichment score”, `F8H` is recorded as -0.184.
For `R4H`, “normalised enrichment score” read -0.0726.
Under “normalised enrichment score”, `N11S` is recorded as 0.166.

Study 4 — technique: protein-binding microarray; molecule type: double-stranded DNA, one strand shown; matrix: in vitro; tested at: 250 nM; setting: 60-bp whole probe; added: salmon DNA 0.4 mg/ml; baseline: random background probes; direction: higher = stronger binding; all sequences stand within: GCCTAGCAC … GTCTTGATTCGCTTGACGCTGCTG
Target: Interferon regulatory factor 5, full length, phosphomimetic (IRF5, Homo sapiens, UniProt Q13568-2, residues 1-514, K96S/S451D/S453D/S456D/S462D)
The log fluorescence of `TGAGGTTTCGGTTCCGGTTAGTGCTAG` is reported as 9.33 z-score.
`GGGCATTTAGAAAATGGAAATGTGCTA` has a log fluorescence of -0.117 z-score.
With `GACGGACTGGGGTATCGGAACGTGCTA` the log fluorescence was 0.101 z-score.
For `TTCGATTTCAGACTGGATTAGTGCTAG`, the log fluorescence was 0.945 z-score.
The log fluorescence of `GGTCTTTCCGATTAGTCCCCGTGCTAG` is reported as 0.792 z-score.
`GACGGATTCGACACTGGGGACGTGCTA` gave a log fluorescence of -0.377 z-score.
`TTAGGTATCGGACTGGGTAAGTGCTAG` gave a log fluorescence of 1.56 z-score.
The log fluorescence of `GACGGGTCCCTTTTCCTGACGTGCTAG` is reported as 0.0462 z-score.
With `GACGGTCGCGGTCTCGGGACGTGCTAG` the log fluorescence was -0.395 z-score.
`GACGATTTCAGTTTCGAGGCGTGCTAG` has a log fluorescence of 6.24 z-score.
For `TCATGTTGCTGTTTGAGACTGTGCTAG`, the log fluorescence was 0.39 z-score.
`TCAGGTATCGGTTTCGGTTAGTGCTAG` gave a log fluorescence of 10.9 z-score.
`TCATCTGTCCGTGCTCAGACTGTGCTA` gave a log fluorescence of 0.255 z-score.
`GGCAGGCTTGCCAGTTCCCCGTGCTAG` gave a log fluorescence of -0.927 z-score.
For `GTGTTTTCATTTTATGACAGCGTGCTA`, the log fluorescence was 2.83 z-score.
`TCATTTTTCTGATCCATACTGTGCTAG` gave a log fluorescence of 1.05 z-score.
`GACGGACTGGGGGCTGGGGACGTGCTA` gave a log fluorescence of 0.529 z-score.
With `CGCGCTTCTCGGCGGCGAAGGTGCTAG` the log fluorescence was -0.7 z-score.
`GACGGACTTCTTCTCCTGACGTGCTAG` gave a log fluorescence of -0.218 z-score.

For quick reference, copied from above (study 4):
The log fluorescence of `GACGGGTCCCTTTTCCTGACGTGCTAG` is reported as 0.0462 z-score.
The log fluorescence of `GGTCTTTCCGATTAGTCCCCGTGCTAG` is reported as 0.792 z-score.
`GACGGATTCGACACTGGGGACGTGCTA` gave a log fluorescence of -0.377 z-score.
The log fluorescence of `TGAGGTTTCGGTTCCGGTTAGTGCTAG` is reported as 9.33 z-score.
`GACGGACTTCTTCTCCTGACGTGCTAG` gave a log fluorescence of -0.218 z-score.
`TCAGGTATCGGTTTCGGTTAGTGCTAG` gave a log fluorescence of 10.9 z-score.
`GACGATTTCAGTTTCGAGGCGTGCTAG` has a log fluorescence of 6.24 z-score.
`TCATCTGTCCGTGCTCAGACTGTGCTA` gave a log fluorescence of 0.255 z-score.
